Results of several laboratories.
Parts stem from different laboratories: compare values within a part only. Positions count from the first letter of the parent shown.

Study 1
Target: CCNF, cyclin fold, Cln2 fusion (human)
Method: yeast growth competition, sequencing
Matrix: yeast
Notes: strong parent motif
Reference: not given
Reading: higher = stronger binding
Starting sequence: CDC6 docking peptide (human); TLKGRRLVFDNQL
`TLKGRRFVFDNQL [L7F]`: “normalised enrichment score” 0.757.
For `TLKGRRLVFSNQL [D10S]`, “normalised enrichment score” read 8.49.
Under “normalised enrichment score”, `TLKGRRLAFDNQL [V8A]` is recorded as 6.07.
For `TLKRRRLVFDNQL [G4R]`, “normalised enrichment score” read 3.54.
Under “normalised enrichment score”, `TLKGRRLCFDNQL [V8C]` is recorded as 9.24.
`TMKGRRLVFDNQL [L2M]`: “normalised enrichment score” 8.08.
`TLKGRRNVFDNQL [L7N]`: “normalised enrichment score” 0.897.
`TLKGRRTVFDNQL [L7T]` — result for “normalised enrichment score”: 0.453.
`LLKGRRLVFDNQL [T1L]`: “normalised enrichment score” 8.57.
Under “normalised enrichment score”, `TTKGRRLVFDNQL [L2T]` is recorded as 7.59.
Under “normalised enrichment score”, `TLKLRRLVFDNQL [G4L]` is recorded as 0.975.
`TLKGRRLVFDNQM [L13M]` — result for “normalised enrichment score”: 8.23.
For `TLKGRRMVFDNQL [L7M]`, “normalised enrichment score” read 0.712.
Under “normalised enrichment score”, `TLKGCRLVFDNQL [R5C]` is recorded as 1.71.
Under “normalised enrichment score”, `TCKGRRLVFDNQL [L2C]` is recorded as 7.64.
`TLKFRRLVFDNQL [G4F]` — result for “normalised enrichment score”: 3.25.
For `TLKGRRLVFLNQL [D10L]`, “normalised enrichment score” read 6.76.
Under “normalised enrichment score”, `TLKGRRLVFDEQL [N11E]` is recorded as 7.99.
Under “normalised enrichment score”, `TLKGRRGVFDNQL [L7G]` is recorded as 0.503.
Under “normalised enrichment score”, `TLKGRRQVFDNQL [L7Q]` is recorded as 1.26.
For `TLPGRRLVFDNQL [K3P]`, “normalised enrichment score” read 7.54.
`TLLGRRLVFDNQL [K3L]` — result for “normalised enrichment score”: 7.52.
For `TNKGRRLVFDNQL [L2N]`, “normalised enrichment score” read 7.4.
Under “normalised enrichment score”, `TLKGRRLVFDKQL [N11K]` is recorded as 8.29.
For `SLKGRRLVFDNQL [T1S]`, “normalised enrichment score” read 8.05.

Study 2
Target: Ras GTPase-activating protein-binding protein 1, full length (G3BP1, Homo sapiens, UniProt Q13283)
Sequence of UniProt Q13283 (whole entry, looked up): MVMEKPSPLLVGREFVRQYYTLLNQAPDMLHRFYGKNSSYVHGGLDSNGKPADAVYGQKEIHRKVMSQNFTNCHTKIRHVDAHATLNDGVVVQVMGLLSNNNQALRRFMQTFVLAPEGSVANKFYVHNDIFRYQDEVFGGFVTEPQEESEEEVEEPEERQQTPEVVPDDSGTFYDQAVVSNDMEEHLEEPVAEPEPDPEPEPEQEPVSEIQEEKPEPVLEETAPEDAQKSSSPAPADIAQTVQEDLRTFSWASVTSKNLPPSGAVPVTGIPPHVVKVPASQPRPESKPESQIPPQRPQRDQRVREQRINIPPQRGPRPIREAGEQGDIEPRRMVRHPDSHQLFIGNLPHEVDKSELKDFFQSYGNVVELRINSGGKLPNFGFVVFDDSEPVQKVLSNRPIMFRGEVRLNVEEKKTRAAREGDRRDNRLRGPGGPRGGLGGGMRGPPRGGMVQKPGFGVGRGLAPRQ
Method: RNA Bind-n-Seq
Form: RNA
Matrix: in vitro
Tested at: 200 nM
Notes: whole 134-nt RNA, ends assumed
With: 150 mM LiCl
Reference: input library
Reading: higher = stronger binding
All molecules: 7-deaza-guanosine replaces G
`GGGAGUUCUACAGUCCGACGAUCUUCAAAACAGAAUCCUUCCAGUCCUCUUCAGCGUUUAAUUCCAGGCUCAAACUUGGACAGUGAACCCAGAAUUCAAACAGAUAUACUAAAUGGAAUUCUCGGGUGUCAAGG` has a log2 enrichment of 1.29.
For `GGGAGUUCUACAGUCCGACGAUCAGUCCUGUGCUACACAUCGUAUGUACCGAAUCGGGGCCCCCGGCCCCCGGCCCCCGGAAAGUAUUAUGUUACGCCGUUCGGAUCUGCACUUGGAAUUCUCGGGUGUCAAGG`, the log2 enrichment was -1.67.
`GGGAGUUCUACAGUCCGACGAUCCACAGACAACACGCACCCACACAGACACAGAGGGAAGGGGUUGGGAUGGGGACAGGGUGCAAAGCAGGGCGGGGUAGGACCCCAGCCCCUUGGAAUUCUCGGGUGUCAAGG` has a log2 enrichment of 0.0341.
With `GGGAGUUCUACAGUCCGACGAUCUCAAGUCCUGUGCUACACAUCGUAUGUACCGAAUCGGAAAAAGGUGGUUUUUGGAAAGUAUUAUGUUACGCCGUUCGGAUCUGCACUUCCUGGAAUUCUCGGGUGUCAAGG` the log2 enrichment was -0.15.
`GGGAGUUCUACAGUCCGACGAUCUGGGAGGUGGAUUUUGUUUAUUUUUUUAGCUCAUUUCCAGGGGUGGGAAUUUUUUUUUAAUAUGUGUCAUGAGUAAAGUUGUUUUUGAAAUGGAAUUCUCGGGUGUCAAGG` gave a log2 enrichment of 0.414.
`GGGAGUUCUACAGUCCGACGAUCAGUCCUGUGCUACACAUCGUAUGUACCGAAUCAAAUUUUUUUAAAUUUAAAUUUAAAAAAGUAUUAUGUUACGCCGUUCGGAUCUGCACUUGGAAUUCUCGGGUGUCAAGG` gave a log2 enrichment of -2.65.
For `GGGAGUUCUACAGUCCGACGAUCUCAAGUCCUGUGCUACACAUCGUAUGUACCGAAUCGGGGCCGGGGCCGGCCGGGAAAGUAUUAUGUUACGCCGUUCGGAUCUGCACUUCCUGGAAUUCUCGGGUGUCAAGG`, the log2 enrichment was 0.323.
`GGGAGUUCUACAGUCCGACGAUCAAGUCCUGUGCUACACAUCGUAUGUACCGAAUCAAACCCAAACCCAAACCCCCAAAAAAGUAUUAUGUUACGCCGUUCGGAUCUGCACUUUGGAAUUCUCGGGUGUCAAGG` gave a log2 enrichment of -0.0712.
With `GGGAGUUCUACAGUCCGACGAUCUGCGGGCGGCUGAGACGCCGCCUGCCUGGCACCUAGGAGCGCAGCGGAGCCCCGACACCGCCGCCGCCGCCAUGGAGUCCGAGACCGAACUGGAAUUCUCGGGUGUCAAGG` the log2 enrichment was 0.452.
`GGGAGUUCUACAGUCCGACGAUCACCAUGCAGGUGGGCAUCUUUGGGAAGUGGGGCAAGGGGGGGAUAGGGAGGGGGGUAACACUUUGGGAACAGGUGGUCCCAGGUCGCUUCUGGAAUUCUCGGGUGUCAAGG` has a log2 enrichment of 0.179.
`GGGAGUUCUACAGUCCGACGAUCUGGCCCUGGUGGCAUGCGGGGAGGAAGAGGUGGCCUCAUGGAUCGUGGUGGUCCCGGUGGAAUGUUCAGAGGUUGCCGUGGUGGAGACAGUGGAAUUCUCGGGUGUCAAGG` gave a log2 enrichment of 0.285.

Study 3
Target: ABI1, truncated, D143A, DHFR fusion (Arabidopsis thaliana)
Method: DHFR PCA, deep sequencing
Matrix: yeast
Notes: methotrexate growth selection, single substitutions
With: (+)-ABA 0.0091 µM
Reference: wild-type fitted maximum
Reading: higher = stronger binding
Starting sequence: PYL1, truncated, DHFR fusion (Arabidopsis thaliana); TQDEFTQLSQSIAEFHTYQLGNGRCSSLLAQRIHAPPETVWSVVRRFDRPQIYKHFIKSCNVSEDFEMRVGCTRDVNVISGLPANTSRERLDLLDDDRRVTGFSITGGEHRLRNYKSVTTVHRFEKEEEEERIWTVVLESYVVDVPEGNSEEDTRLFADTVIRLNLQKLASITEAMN; partner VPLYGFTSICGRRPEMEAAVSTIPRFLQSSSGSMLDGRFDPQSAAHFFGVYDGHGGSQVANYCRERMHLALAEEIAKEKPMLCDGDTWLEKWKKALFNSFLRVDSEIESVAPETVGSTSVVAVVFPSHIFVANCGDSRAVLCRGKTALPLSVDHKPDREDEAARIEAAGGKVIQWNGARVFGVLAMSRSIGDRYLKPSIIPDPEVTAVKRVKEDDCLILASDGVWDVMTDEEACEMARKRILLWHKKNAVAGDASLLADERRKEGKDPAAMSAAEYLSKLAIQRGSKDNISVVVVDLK
`G23E`: “relative binding score” 0.608%.
`A170H`: “relative binding score” -1.89%.
`L166I`: “relative binding score” 6.37%.
For `G71K`, “relative binding score” read -4.6%.
`P36Y` — result for “relative binding score”: -0.882%.
Under “relative binding score”, `N85V` is recorded as 70.1%.
`D75Y`: “relative binding score” 25.5%.
For `V136N`, “relative binding score” read -14.1%.
Under “relative binding score”, `T6W` is recorded as 25.8%.
`G148Y` — result for “relative binding score”: -9.22%.
Under “relative binding score”, `C72V` is recorded as 38.9%.
`S26H` — result for “relative binding score”: 9.03%.
For `T1L`, “relative binding score” read 30.3%.
`I52K`: “relative binding score” 1%.
Under “relative binding score”, `D159C` is recorded as -1.65%.
Under “relative binding score”, `T73R` is recorded as 0.5%.

Study 4
Target: RING finger protein unkempt homolog, zinc fingers 1-6, GST-SBP tag (UNK, Homo sapiens, UniProt Q9C0B0, residues 30-357)
Sequence of UniProt Q9C0B0 (30-357, looked up): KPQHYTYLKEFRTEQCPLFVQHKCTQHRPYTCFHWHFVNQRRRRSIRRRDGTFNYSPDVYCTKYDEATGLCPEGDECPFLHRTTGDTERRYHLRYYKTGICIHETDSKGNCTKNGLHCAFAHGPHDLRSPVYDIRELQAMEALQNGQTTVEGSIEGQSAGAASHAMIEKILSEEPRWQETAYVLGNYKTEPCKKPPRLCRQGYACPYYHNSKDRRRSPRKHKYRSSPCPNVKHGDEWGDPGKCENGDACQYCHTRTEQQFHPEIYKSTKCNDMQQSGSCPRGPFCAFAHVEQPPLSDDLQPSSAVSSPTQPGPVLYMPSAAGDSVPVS
Method: RNA Bind-n-Seq
Form: RNA
Matrix: in vitro
Tested at: not given
Notes: RNA with constant flanks, human and mouse sites, ends assumed
Reference: input RNA pool
Reading: higher = stronger binding
`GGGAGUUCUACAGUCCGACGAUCAGAUCCAUUGCCGUAGAUCCCAGCACAAGCAAGUCGGCAGACUCGAGGUGGCAAAAAGAAGUAGCGAUGCUGAGGAAGGAGACCGAGGACCUUCAACAACAAUGCCUUUAUCUAAAUGAACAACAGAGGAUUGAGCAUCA` gave a bound/input enrichment of 0.212 ratio.
`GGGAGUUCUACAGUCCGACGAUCGAAAAGGCACAGCUUCACUUAGACCAAGUACUCACUAGUCCUUUCAACACAACAUUUCCACUCGACUACAUGAAAGAUGAGUUCCUUCCAGCUCUGUCUUUACAAAGCGGUGCUUUAGAUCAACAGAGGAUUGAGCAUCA` has a bound/input enrichment of 0.898 ratio.
For `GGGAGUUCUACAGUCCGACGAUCUCGAGCCGAUAACAGGGUUCGGGUGUCUGGUGUGUGACCAUCACAGGGUUUGUGGAUGCACUUAGAUGUUUGCAAUGAGCACUGUGGCUGGCAUGCCCCAGUAUUUUGGAUACCAAUGCACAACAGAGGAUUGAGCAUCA`, the bound/input enrichment was 0.146 ratio.
With `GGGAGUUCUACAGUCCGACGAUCGUAGUUUGUUGUUUAAAAUAAUGUAAUCAUCAAAAUGAUACACAUGUUACACUACUAUUAACUAGGCUUCAAUAUAUCAGUGUUUAUUUCAUUGUGUUAAAUGUAUACUUGUAAAUAAAACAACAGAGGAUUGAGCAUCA` the bound/input enrichment was 1.01 ratio.
The bound/input enrichment of `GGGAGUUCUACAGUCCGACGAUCGAUGAAGUGGAGAAAUACAAUCGGAAUGGAGUCAAUGCCCUGCAACUGGACCCAGCACUCAACAGACUCUUCACAGCAGGUCGAGACUCCAUCAUAAGAAUAUGGAGUGUCAAUCAGCACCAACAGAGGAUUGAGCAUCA` is reported as 0.117 ratio.
`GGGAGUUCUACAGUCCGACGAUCGGGGGGGGUGUGCCUGCUGUACUUGACUGAAGUGUAAAGCUUUGGUAAGGAUUUGGCCUCUAGCAGUCUUAGGUUUCUGCAUUUACCACGGUGACACAGCCCCUACAGGGCUGACUAGGACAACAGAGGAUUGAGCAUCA` has a bound/input enrichment of 0.642 ratio.
The bound/input enrichment of `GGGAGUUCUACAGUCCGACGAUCUACAUGGUAAAGCAUAAAUCGCACUUGAGAUUCUGAAUUAUUUGGCUCCUCCAUUUCUGGAAAUUGAGACUCAAGCUUUAUGAAUUUAUCAAGAACUUAAAAAUGAAGAAGGUCACAGAUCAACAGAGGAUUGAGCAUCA` is reported as 0.149 ratio.
`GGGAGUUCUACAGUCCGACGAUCAGCCUCAAGUUCUCCAGUGCUGGGGACUUCUUGGUGGCAGGCGUGGGACAGGAGCACAGGCUUGGCCGGUGGUGGAGGAUCAAAGAGGCCCGGAACUCAGUCUGCAUCAUCCCACUCCGCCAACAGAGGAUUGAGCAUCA` has a bound/input enrichment of 0.103 ratio.
For `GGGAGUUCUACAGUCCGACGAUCACAAUAGAAACCAAACCAAAUGGGCACCCUCGGUUGCCGGGGGGCAGGUGGGGAGGGGGGUGGGAAGAAGGGAUGUCUGUCUGUCGUCCCCCUCCCCCUCUCCACUCUUUACCCACAAAGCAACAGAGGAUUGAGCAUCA`, the bound/input enrichment was 0.362 ratio.
`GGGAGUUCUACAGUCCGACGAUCUGAAAAUGCUUUCGAGAGACUACUGGACAUUAUUUCAGAGGAGGGGAACAGUGAUGGAGGUAUAGUAGUUGAAGAUUGUUUGAUUUUGCUCCAAAACUUAUUAAAAAACAACAACUCCAACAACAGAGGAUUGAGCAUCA` has a bound/input enrichment of 0.658 ratio.
`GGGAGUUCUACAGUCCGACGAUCCUUUGAUGUCUUGCAUAUAUUGCUGGUGGUAUUUAUGUGAAUUUUGUACAGUGAUUUAAUCUUGUAGUUUAUCAUUUGUACAAUUGCACUAUCUAAAUGUACUCCCUUCUGAAUGUUAAUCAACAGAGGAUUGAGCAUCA` has a bound/input enrichment of 0.125 ratio.
